Assay results of several laboratories.
Lines come from different studies, so protocols differ.
Target: Prostaglandin G/H synthase 1 (PTGS1, Ovis aries, UniProt P05979)
Sequence of UniProt P05979 (whole entry, looked up): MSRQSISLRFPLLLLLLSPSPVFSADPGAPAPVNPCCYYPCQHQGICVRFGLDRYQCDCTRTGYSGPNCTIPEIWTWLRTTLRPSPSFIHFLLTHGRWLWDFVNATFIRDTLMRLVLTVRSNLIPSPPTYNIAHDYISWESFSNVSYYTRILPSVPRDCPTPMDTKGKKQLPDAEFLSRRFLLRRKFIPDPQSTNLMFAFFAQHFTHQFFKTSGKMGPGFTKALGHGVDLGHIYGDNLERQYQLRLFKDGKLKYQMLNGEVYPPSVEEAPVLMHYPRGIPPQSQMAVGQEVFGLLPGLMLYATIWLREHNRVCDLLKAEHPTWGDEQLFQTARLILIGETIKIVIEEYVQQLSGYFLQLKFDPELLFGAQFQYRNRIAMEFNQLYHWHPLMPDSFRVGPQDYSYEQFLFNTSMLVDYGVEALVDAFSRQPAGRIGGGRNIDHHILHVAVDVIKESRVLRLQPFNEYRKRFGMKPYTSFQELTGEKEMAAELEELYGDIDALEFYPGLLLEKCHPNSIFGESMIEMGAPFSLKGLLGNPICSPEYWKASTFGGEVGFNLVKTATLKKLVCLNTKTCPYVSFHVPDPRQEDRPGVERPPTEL

SMILES	test	IC50 [µM]
CN(C(=O)c1ccn2ncc(-c3ccc(C(N)=O)cc3)c2c1)c1ccc(C#N)cn1	cell-free assay, inhibitor	> 30
Clc1cccc(Cl)c1Nc1ccccc1Cc1nnn[nH]1	enzyme activity, inhibitor, fluorescence	> 100
O=c1[nH]c(=S)[nH]c2c1C(c1cc(/N=N/c3ccc(Br)cc3)ccc1O)c1c([nH]c(=S)[nH]c1=O)N2	enzyme activity, inhibitor, ELISA	9.2
COc1cc(O)ccc1CCC(c1ccc(O)cc1)c1cc2c(c(C)c1O)OC(c1ccc(O)cc1)CC2 (mixture of isomers)	enzyme activity, purified enzyme	> 10
O=C(O)C(F)(F)c1ccccc1Nc1c(Cl)cccc1Cl	enzyme activity, inhibitor, fluorescence	> 100
Cc1cccc(/N=N/c2ccc(O)c(C3c4c([nH]c(=S)[nH]c4=O)Nc4[nH]c(=S)[nH]c(=O)c43)c2)c1	enzyme activity, inhibitor, ELISA	7.88
Fc1ccc(/C=C/N=c2\oc3ccccc3cc2-c2ccccc2)cc1	enzyme activity, inhibitor	0.0115
CSc1nn(-c2ccccc2)c(NC(=O)/C(C#N)=C(/Nc2ccc(C)cc2)Nc2c(C)n(C)n(-c3ccccc3)c2=O)c1C#N	enzyme activity, inhibitor	12.5
Brc1ccc(/N=c2\oc3ccccc3cc2-c2ccccc2)cc1	enzyme activity, inhibitor	0.0101
C[C@H]1CCCC[C@@H]1NC(=O)/C(C#N)=C/c1cn(-c2ccccc2)nc1-c1cccs1	enzyme activity, inhibitor, absorbance	15.2
C(=C\c1ccccc1)/N=c1\oc2ccccc2cc1-c1ccccc1	enzyme activity, inhibitor	0.0151
COc1ccc(/N=N/c2ccc(O)c(C3c4c([nH]c(=S)[nH]c4=O)Nc4[nH]c(=S)[nH]c(=O)c43)c2)cc1	enzyme activity, inhibitor, ELISA	6.86
Cc1cccc(/N=c2\oc3ccccc3cc2-c2ccccc2)c1	enzyme activity, inhibitor	0.0084
NS(=O)(=O)Cc1ccccc1Nc1c(Cl)cccc1Cl	enzyme activity, inhibitor, fluorescence	> 100

Excerpt of the above:
SMILES	test	IC50 [µM]
C[C@H]1CCCC[C@@H]1NC(=O)/C(C#N)=C/c1cn(-c2ccccc2)nc1-c1cccs1	enzyme activity, inhibitor, absorbance	15.2
